Results of several laboratories.
Each numbered part is a random draw from the data of one study; scales do not carry over between parts. Substitutions count along the parent as printed.
UniProt Q9HC98, sequence (whole entry, looked up): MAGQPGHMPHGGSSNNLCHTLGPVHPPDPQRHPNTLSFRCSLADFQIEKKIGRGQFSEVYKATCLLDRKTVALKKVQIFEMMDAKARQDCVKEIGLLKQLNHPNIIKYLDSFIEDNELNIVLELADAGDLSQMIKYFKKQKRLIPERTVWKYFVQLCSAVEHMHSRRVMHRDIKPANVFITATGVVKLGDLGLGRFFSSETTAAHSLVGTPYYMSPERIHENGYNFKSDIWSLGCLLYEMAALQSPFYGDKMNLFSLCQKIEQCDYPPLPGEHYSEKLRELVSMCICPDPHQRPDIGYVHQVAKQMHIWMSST
UniProt Q15349, sequence (whole entry, looked up): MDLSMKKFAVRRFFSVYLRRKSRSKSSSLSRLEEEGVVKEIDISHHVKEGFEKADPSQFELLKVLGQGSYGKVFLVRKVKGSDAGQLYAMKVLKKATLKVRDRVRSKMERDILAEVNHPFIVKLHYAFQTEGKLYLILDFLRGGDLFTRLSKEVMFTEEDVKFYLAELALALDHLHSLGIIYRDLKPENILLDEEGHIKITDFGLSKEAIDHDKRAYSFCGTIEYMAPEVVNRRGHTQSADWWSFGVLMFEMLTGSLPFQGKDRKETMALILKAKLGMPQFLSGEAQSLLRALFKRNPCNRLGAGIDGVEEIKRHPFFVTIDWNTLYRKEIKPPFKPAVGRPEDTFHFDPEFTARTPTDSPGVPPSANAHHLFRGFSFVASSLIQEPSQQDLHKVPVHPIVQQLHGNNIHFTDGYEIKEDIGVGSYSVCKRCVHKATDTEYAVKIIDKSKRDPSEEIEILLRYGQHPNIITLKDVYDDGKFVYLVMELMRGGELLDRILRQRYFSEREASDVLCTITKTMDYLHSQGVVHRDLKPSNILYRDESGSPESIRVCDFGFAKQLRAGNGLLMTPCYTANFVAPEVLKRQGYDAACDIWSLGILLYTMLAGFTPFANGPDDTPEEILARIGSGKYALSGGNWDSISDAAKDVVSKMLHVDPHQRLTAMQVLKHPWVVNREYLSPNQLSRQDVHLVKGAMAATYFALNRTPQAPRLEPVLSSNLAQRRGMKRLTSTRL
UniProt Q99558, sequence (whole entry, looked up): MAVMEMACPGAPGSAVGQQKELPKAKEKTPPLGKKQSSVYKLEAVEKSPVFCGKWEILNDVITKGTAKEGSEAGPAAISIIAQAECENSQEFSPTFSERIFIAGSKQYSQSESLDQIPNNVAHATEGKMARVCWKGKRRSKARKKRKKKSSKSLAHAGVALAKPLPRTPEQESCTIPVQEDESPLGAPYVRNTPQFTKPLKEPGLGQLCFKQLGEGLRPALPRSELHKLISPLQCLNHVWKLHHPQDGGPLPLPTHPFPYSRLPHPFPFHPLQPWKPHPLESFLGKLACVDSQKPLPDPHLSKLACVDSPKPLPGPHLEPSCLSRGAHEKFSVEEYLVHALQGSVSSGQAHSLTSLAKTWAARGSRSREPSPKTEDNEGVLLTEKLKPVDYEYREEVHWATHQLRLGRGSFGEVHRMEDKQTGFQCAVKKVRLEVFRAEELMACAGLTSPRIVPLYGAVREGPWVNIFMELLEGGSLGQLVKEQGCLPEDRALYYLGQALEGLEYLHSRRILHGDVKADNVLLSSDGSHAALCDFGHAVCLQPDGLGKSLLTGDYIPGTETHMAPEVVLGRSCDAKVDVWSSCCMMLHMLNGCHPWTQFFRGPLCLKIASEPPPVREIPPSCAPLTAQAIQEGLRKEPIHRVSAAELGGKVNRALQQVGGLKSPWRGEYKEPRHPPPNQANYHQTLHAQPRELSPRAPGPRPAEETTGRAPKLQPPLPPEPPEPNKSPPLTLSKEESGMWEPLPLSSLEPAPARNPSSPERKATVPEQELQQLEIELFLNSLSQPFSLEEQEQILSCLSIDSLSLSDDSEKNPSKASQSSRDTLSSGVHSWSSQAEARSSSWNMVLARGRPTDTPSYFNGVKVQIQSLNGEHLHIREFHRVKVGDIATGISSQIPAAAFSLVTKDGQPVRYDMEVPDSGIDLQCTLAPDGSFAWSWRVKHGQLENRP
UniProt P78368, sequence (whole entry, looked up): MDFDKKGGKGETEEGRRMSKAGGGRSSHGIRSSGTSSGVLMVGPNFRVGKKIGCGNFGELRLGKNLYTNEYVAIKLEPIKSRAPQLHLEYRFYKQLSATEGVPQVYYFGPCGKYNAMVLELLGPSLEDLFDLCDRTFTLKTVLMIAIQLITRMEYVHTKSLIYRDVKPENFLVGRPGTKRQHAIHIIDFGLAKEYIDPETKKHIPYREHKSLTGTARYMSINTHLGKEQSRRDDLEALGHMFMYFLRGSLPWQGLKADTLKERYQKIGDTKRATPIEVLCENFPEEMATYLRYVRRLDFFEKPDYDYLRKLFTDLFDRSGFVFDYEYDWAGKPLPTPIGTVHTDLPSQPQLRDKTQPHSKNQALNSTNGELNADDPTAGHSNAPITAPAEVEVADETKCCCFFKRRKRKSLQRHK
UniProt Q6PHR2, sequence (whole entry, looked up): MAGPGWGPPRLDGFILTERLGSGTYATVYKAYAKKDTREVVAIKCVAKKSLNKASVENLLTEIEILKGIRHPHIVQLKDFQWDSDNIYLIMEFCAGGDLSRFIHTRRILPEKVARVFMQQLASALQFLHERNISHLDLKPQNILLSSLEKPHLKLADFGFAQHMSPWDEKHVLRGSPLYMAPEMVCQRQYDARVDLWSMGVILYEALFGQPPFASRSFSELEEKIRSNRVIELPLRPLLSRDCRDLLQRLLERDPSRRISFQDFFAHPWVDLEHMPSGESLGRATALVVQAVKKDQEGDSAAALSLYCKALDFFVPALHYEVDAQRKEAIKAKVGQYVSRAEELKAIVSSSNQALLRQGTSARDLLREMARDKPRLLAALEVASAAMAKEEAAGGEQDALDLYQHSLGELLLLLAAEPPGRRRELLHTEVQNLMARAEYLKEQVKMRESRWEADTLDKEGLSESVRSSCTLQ
UniProt Q8N568, sequence (whole entry, looked up): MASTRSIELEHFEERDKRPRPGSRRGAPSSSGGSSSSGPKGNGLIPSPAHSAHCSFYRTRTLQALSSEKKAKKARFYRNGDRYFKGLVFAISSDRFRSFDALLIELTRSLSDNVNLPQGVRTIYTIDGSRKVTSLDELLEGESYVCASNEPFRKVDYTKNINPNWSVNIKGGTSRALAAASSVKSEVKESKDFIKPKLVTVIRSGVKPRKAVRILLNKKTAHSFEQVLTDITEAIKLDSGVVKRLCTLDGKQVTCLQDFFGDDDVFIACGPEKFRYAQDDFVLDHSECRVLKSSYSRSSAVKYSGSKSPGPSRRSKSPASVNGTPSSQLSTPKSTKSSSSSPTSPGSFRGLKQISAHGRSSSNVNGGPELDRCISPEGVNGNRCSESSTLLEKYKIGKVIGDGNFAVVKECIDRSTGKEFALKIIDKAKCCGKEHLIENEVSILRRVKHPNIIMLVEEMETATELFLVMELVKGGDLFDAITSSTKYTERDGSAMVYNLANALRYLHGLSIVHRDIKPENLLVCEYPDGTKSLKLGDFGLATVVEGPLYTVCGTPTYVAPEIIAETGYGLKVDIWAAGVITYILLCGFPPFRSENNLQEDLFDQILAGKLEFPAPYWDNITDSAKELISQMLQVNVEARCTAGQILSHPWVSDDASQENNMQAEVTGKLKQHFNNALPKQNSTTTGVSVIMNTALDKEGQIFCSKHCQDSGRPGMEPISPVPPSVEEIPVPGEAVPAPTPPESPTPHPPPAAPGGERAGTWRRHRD
UniProt P49760, sequence (whole entry, looked up): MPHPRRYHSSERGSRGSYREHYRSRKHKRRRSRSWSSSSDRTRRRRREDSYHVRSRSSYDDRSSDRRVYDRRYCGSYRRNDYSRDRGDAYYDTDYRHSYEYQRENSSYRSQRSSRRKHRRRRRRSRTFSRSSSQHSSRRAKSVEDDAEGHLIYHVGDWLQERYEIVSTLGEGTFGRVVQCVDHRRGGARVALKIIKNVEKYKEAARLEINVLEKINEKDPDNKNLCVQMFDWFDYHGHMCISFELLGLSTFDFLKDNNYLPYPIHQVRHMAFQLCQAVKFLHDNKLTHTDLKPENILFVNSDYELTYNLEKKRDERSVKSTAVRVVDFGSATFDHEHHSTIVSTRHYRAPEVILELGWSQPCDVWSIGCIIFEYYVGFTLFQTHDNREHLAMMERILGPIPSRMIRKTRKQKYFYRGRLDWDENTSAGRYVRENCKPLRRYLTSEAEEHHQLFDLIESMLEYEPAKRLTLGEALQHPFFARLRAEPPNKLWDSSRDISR
UniProt P06239, sequence (whole entry, looked up): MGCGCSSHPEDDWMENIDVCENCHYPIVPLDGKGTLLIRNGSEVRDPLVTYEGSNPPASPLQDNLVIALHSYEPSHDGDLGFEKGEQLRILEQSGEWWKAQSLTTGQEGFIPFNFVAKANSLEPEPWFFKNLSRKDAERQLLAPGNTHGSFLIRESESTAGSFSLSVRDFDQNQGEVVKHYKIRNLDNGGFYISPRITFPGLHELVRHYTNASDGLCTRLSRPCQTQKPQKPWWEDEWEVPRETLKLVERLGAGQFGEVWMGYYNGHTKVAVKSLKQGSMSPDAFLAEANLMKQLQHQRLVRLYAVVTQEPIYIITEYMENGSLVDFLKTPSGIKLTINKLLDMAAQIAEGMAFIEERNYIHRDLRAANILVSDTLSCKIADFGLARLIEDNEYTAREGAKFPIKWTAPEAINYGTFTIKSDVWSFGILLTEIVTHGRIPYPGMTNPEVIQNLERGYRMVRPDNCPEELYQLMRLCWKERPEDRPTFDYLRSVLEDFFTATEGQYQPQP

Study 1
Compound: C[C@H](c1ccc(F)cc1)N(Cc1cccc(C(=O)O)c1)C(=O)c1cnc2ccccc2c1
Effect on: cell-free assay
Technique: competition with immobilised ligand
Tested at: 1 µM
target	remaining binding [%]
Serine/threonine-protein kinase Nek4 (NEK4, Homo sapiens, UniProt P51957)	100
Interleukin-1 receptor-associated kinase 3 (IRAK3, Homo sapiens, UniProt Q9Y616)	100
Tyrosine-protein kinase ABL1, phosphorylated (ABL1, Homo sapiens, UniProt P00519)	100
Dual specificity protein kinase CLK2 (CLK2, Homo sapiens, UniProt P49760)	98
Serine/threonine-protein kinase DCLK2 (DCLK2, Homo sapiens, UniProt Q8N568)	100

Study 2
Target: RNA binding protein fox-1 homolog 2, RRM domain, GST-SBP tag (RBFOX2, Homo sapiens, UniProt O43251-10, residues 100-194)
Technique: RNA Bind-n-Seq
Form: RNA
Sample: in vitro
Tested at: 365 nM
Setting: natural RNA segment, single round, ends assumed
Relative to: no-protein control
Direction: higher = stronger binding
Constant ends, left off below: GGGAGUUCUACAGUCCGACGAUC … UGGAAUUCUCGGGUGCCAA
Construct (chain): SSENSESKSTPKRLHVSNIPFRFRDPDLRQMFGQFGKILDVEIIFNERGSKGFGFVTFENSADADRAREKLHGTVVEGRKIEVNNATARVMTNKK
Strand	RBNS enrichment (R)
GCACAGUUGAUGCUGCUUGGGACACGUUUCUUAGAGGGCUUACAGUAUGUAAAUAAUUGACAUUGGUGUUAACACGACUGUCGGGGAUUCACUGAAAUCCACAUGAUUCA	0.576
UUAUUUUUUUCAACAUGCUUUCAACCUGUCAACAAAAACAAAACACACAAAAAAAGGGCAGUGUUUGAAGAUUGUUGAUUUUUUUCUGGGGAUAAUCUAUAUUAUAUUGA	0.618
UUUUAGUAGAGACGGGGUUUCACCAUGUUAGCCAGGAUGGUCUCGAUCUCCUGACCUCGUGAUCCGCCCGCCUCGGCCUCCCAAAGUGCUGGGAUUACAGGCGUGAGCCA	0.225
UUUUUUCCUUGCUCACAUUAAAAGGAAGCAUGGAGUUCUAAUGCUCCCAUAAACUAUGUAUUUUGGCAAGACACUUCACUACUCCAGGUCUCACUUUCCCCAUCUGUAAA	1.01
CAUAUGUUUGUUUAUUAAUAGGAUUUUAAAAAAAAUGAACAUCUUUUUAAAGCUGGGAAAUGUAUAUAAAUUCAGGUAUCAGUAUCAAUAAUAGACUGUUUCAUUGAAAG	0.729
UAAGAUAAUUCUCACGUUCACACCUGGUGGCAGGCUUCACUGUAGGGACGGACAUUGCAGUUACACCACGAUUCCUUCCUCUUCACUGGCUCGAGGUAAACCCUUUUCAA	0.531
CCGUAAAUGGCAUUUUACAUGACUGCAAGUAUUGUUAUACCGAAUCCUAUUUUAAAAGAGUUUUAGUAACGGUGAGCUGAGAAAUUCUGGUCAUGGUGAGCAGCAGGCGC	0.585
ACUGUGCUUCUUACUUACUGAUAUCCAGUAACUGGCACUUACUAGGUCUUCAUGAAUGUUUCCUGAGUAAAGGAAGGAGACCAGCAGCUAACCUUAGUUAGAGCCUACCU	1.87

Study 3
SMILES: NC(=O)c1ccc(N(C(N)=O)c2c(F)cccc2F)nc1-c1ccc(F)cc1F
Effect on: enzyme activity
Action: inhibitor
Tested at: 0.5 µM
Relative to: control
target	remaining activity
Ribosomal protein S6 kinase alpha-2 (RPS6KA2, Homo sapiens, UniProt Q15349)	97.5%
Serine/threonine-protein kinase Nek6 (NEK6, Homo sapiens, UniProt Q9HC98)	90.5%
Mitogen-activated protein kinase kinase kinase 14 (MAP3K14, Homo sapiens, UniProt Q99558)	114%
Angiopoietin-1 receptor (TEK, Homo sapiens, UniProt Q02763)	96.7%
Glycogen synthase kinase-3 beta (GSK3B, Homo sapiens, UniProt P49841)	101%
Activin receptor type-1B (ACVR1B, Homo sapiens, UniProt P36896)	113%
Casein kinase I isoform gamma-3 (CSNK1G3, Homo sapiens, UniProt Q9Y6M4)	103%
MAP kinase-activated protein kinase 2 (MAPKAPK2, Homo sapiens, UniProt P49137)	98.9%
Wee1-like protein kinase (WEE1, Homo sapiens, UniProt P30291)	101%
Serine/threonine-protein kinase ULK3 (ULK3, Homo sapiens, UniProt Q6PHR2)	101%
Rhodopsin kinase GRK7 (GRK7, Homo sapiens, UniProt Q8WTQ7)	108%
Tyrosine-protein kinase Lck (LCK, Homo sapiens, UniProt P06239)	86.3%
Casein kinase I isoform gamma-2 (CSNK1G2, Homo sapiens, UniProt P78368)	99.6%
Tyrosine-protein kinase FRK (FRK, Homo sapiens, UniProt P42685)	106%

Study 4
Substitution: S87K
Target: ABI1, truncated, D143A, DHFR fusion (Arabidopsis thaliana)
Technique: DHFR PCA, deep sequencing
Sample: yeast
Setting: methotrexate growth selection, single substitutions
Relative to: wild-type fitted maximum
Direction: higher = stronger binding
Starting sequence: PYL1, truncated, DHFR fusion (Arabidopsis thaliana); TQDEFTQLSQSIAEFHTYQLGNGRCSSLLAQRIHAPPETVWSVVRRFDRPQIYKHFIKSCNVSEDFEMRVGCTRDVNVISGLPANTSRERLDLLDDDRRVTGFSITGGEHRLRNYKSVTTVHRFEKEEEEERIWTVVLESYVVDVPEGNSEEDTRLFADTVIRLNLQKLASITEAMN
together with	relative binding score
(+)-ABA 0.0091 µM	5.53%
(+)-ABA 2500 µM	1.25%
(+)-ABA 710 µM	8.67%
(+)-ABA 0.11 µM	-6.62%
(+)-ABA 0 µM	6.43%
(+)-ABA 0.032 µM	6.91%

Single results of other studies
Cell line: HaCaT
Tested at: 100 µM
Time: 18 h
Structure (SMILES)	viability
C[N+]1(CCCCC[N+]2(C)CCCC2)CCCC1	107%
CO[C@H]1C[C@@H]2CC[C@@H](C)[C@@](O)(O2)C(=O)C(=O)N2CCCC[C@H]2C(=O)O[C@H]([C@H](C)C[C@@H]2CC[C@@H](OC(=O)C(C)(CO)CO)[C@H](OC)C2)CC(=O)[C@H](C)/C=C(\C)[C@@H](O)[C@@H](OC)C(=O)[C@H](C)C[C@H](C)/C=C/C=C/C=C/1C	58.3%

A few entries again (study 2):
Strand	RBNS enrichment (R)
UAAGAUAAUUCUCACGUUCACACCUGGUGGCAGGCUUCACUGUAGGGACGGACAUUGCAGUUACACCACGAUUCCUUCCUCUUCACUGGCUCGAGGUAAACCCUUUUCAA	0.531
UUUUUUCCUUGCUCACAUUAAAAGGAAGCAUGGAGUUCUAAUGCUCCCAUAAACUAUGUAUUUUGGCAAGACACUUCACUACUCCAGGUCUCACUUUCCCCAUCUGUAAA	1.01
UUUUAGUAGAGACGGGGUUUCACCAUGUUAGCCAGGAUGGUCUCGAUCUCCUGACCUCGUGAUCCGCCCGCCUCGGCCUCCCAAAGUGCUGGGAUUACAGGCGUGAGCCA	0.225
UUAUUUUUUUCAACAUGCUUUCAACCUGUCAACAAAAACAAAACACACAAAAAAAGGGCAGUGUUUGAAGAUUGUUGAUUUUUUUCUGGGGAUAAUCUAUAUUAUAUUGA	0.618
CAUAUGUUUGUUUAUUAAUAGGAUUUUAAAAAAAAUGAACAUCUUUUUAAAGCUGGGAAAUGUAUAUAAAUUCAGGUAUCAGUAUCAAUAAUAGACUGUUUCAUUGAAAG	0.729
